# Published values gathered from unrelated publications.
# Parts stem from different laboratories: compare values within a part only.

# Series 1
# Target: RING finger protein unkempt homolog, zinc fingers 1-6, SBP tag (UNK, Homo sapiens, UniProt Q9C0B0, residues 30-357)
# Chain of UniProt Q9C0B0 (30-357, looked up): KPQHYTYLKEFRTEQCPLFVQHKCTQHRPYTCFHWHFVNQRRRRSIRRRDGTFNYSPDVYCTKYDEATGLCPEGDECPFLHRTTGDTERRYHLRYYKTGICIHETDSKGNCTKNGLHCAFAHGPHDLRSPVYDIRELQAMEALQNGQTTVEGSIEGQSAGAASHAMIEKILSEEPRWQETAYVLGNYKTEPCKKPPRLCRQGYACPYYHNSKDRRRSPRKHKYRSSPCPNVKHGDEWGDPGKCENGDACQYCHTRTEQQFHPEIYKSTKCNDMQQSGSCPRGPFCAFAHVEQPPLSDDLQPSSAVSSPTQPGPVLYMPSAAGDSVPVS
# Method: RNA Bind-n-Seq
# Form: RNA
# Medium: in vitro
# Tested at: 100 nM
# Notes: RNA with constant flanks, vertebrate orthologous sites, ends assumed
# Reference: input RNA pool
# Direction: higher = stronger binding
# Shared flanks, not repeated: GGGAGUUCUACAGUCCGACGAUC … CAACAGAGGAUUGAGCAUCA
Oligonucleotide,bound/input enrichment
CACACUAUAUUGUGGCAUUUAGUCAACAUGGAAGUAGACCAGCUCUGCAGAUUUGAAAUUUAGAUUUUUUUUAAUUAUGUACUGGGGACAGGUUUUUGUCGCUUUACAUUGCUUCCUAGU,3.86 ratio
GCUGAGUGACUUUGGACGUCCGUGUUAUCUCCCUGUGGAGACUGCGAAGUCCCGGGCCUUUCCGUGACCCGAGGUUCCUGCUGUCAAGAUGCUGCGCCAGAUUCUCGGCCAGGCCAAGAA,0.122 ratio
GGGACGCUUUGAGGUAAAAAUUUUAAUUAAGAGCUGAUCACGAGCACAAAUCUUUCCCACUAGCCAUUUACUAAGUUAAAAGAGAUACACAAACCUACUAGUCUUGAACAAACUGUCAUA,1.81 ratio
CAUUUUAUAUAUCAAAAAAAGGCUUUGAAUUUGAAUUUUUAAACAAUUGCUAGUUUUAAUUAGCUCUGCCCUCAUAAAGUGUUAUAAUUCACCAUAAACAGAUAUCGGUCUGAAUUACUU,0.328 ratio
UGUAUGUGUGGGUUUAGGGGAGGGGGGAGGGGGCAAGACAGGUGGAAUCUCUAAGGUGUAUGGGUAGUAGGAAGCACAGUUAGUGCUAAGUGGGCCUUUAUGUUAAACACCUCUGGGGGU,0.309 ratio
CUGAAGCUUUGUGUCUGGCUGCACCUGCAUAAGCUGCUACAAAUAGAAUAAAGAGUUUCAUGGCCUGUGUCUGCCACUGAGAUGCAUGGGGCACAUGGGCUUCGCACACAGUGGGUUUGG,0.67 ratio
UUGUUUUGUACAGGGCAUUCUCUGUACGAAUUUGUUGUGGUUAUAAAACAAUUAGCAAAACAGCUUACAUUUGUAUUUAUUUUCUAUUCCAUAUCUCUACCCCAUGUUUUUCCUCCUCAA,0.708 ratio
CCCCUCUGAACCCCAUAUCUUCUGUUUCAUAGUGCAGAGUAUUCUCUUCAAUUAUGUUAUUAGUGGACUUGUUUUAAUUUUAGAGAAACUUUCAGUACAGAUACUGUGAGCUUACAUGGA,1.21 ratio

# Series 2
# Target: Histone acetyltransferase KAT6A, winged helix 2, GST fusion (KAT6A, Homo sapiens, UniProt Q92794, residues 85-181)
# Method: protein binding microarray
# Form: double-stranded DNA, one strand shown
# Medium: in vitro
# Tested at: not given
# Notes: 8-mer, flanks averaged, mean of 2 arrays, mostly near background
# Reference: not given
# Direction: higher = stronger binding
# Construct (chain): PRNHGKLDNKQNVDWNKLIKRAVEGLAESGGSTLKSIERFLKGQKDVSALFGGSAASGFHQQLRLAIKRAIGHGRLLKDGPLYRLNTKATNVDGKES
Oligonucleotide,E-score
ACCTCACG,0.0752
ATTCCCCA,0.0389
CCTGGATC,-0.0513
AATAATCA,-0.0225
ACTTCGGC,0.0617
GCGCTAGC,0.048
CCCCGTTC,0.00777
GAATCAAC,0.157
CTTGACAC,-0.0327
ATGTTACG,-0.188
GCAGCAAC,0.267
CGGTGTCA,0.0287
TCGTGTAA,-0.072
GTAGTGAA,-0.0532
CAGTTAAC,0.0555
CGGTCATC,-0.129
AAGGTCCT,-0.0178
AGAACTCA,0.00902
GTACCCTA,-0.0419
ACTTCCTC,-0.0916
AAGAAAGT,-0.0375
GCATGGAC,0.0662
AGAGCATA,-0.0798
AAAATCCA,0.0627
GCCCCTCA,-0.0629

# Series 3
# Target: Fragile X messenger ribonucleoprotein 1, C-terminal low-complexity region (Fmr1, Mus musculus, UniProt P35922)
# Method: RNA Bind-n-Seq
# Form: RNA
# Medium: in vitro
# Tested at: 200 nM
# Notes: whole 134-nt RNA, ends assumed
# With: 150 mM LiCl
# Reference: input library
# Direction: higher = stronger binding
# Library: 7-deaza-guanosine replaces G
# Shared flanks, not repeated: GGGAGUUCUACAGUCCGACGAUC … UGGAAUUCUCGGGUGUCAAGG
Oligonucleotide,log2 enrichment
GUCCUGUGCUACACAUCGUAUGUACCGAAUCGGGGUUUUUGGUUUUUGGGUUUUUGGGGAAAGUAUUAUGUUACGCCGUUCGGAUCUGCA,-1.21
ACAAGUGGAGGAGAAGAACUUAGAAGAACUAGAGGAGAAAUCUACUACUCCUCCUCCGGCAGAACCUGUUUCUCUGCCACAAGAACCACC,1.36
UUCCUCAAGUCCUGUGCUACACAUCGUAUGUACCGAAUCGGUGGAGGUGGAAAGUAUUAUGUUACGCCGUUCGGAUCUGCACUUCCAGCA,-0.985
AGUCCUGUGCUACACAUCGUAUGUACCGAAUCGGGGUGGGGUUUUUGGGGUUUGGGGAAAGUAUUAUGUUACGCCGUUCGGAUCUGCACU,-1.03
CACAGACAACACGCACCCACACAGACACAGAGGGAAGGGGUUGGGAUGGGGACAGGGUGCACAGCAGGGCGGGGUAGGACCCCAGCGCCU,-1.02
CACAGACAACACGCACCCACACAGACACAGAGGGAAGGGGUUGGGAUGGGGACAGGGUGCACAGCAGGGCGGAAAAGGACCCCAGCCCCU,1.76
CACAGACAACACGCACCCACACAGACACAGAGGGAAGGGGUUGGGAUGGGGACAGGGUGCACAGCAGGGCGGAGUAGGACCCCAGCCCCU,0.0851
AAGUCCUGUGCUACACAUCGUAUGUACCGAAUCGGGCCCCGGGCCCCGGGCCCCGGGAAAGUAUUAUGUUACGCCGUUCGGAUCUGCACU,-1.47

# Series 4
# Target: Interferon regulatory factor 5, full length, phosphomimetic (IRF5, Homo sapiens, UniProt Q13568-2, residues 1-514, S451D/S453D/S456D/S462D)
# Method: protein-binding microarray
# Form: double-stranded DNA, one strand shown
# Medium: in vitro
# Tested at: 940 nM top
# Notes: 60-bp whole probe
# With: salmon DNA 0.4 mg/ml
# Reference: random background probes
# Direction: higher = stronger binding
# Shared flanks, not repeated: GCCTAGCAC … GTCTTGATTCGCTTGACGCTGCTG
Oligonucleotide,fitted relative affinity
TTAGGTTTCTTTTATTCAAAGTGCTAG,3.84 z-score
TTAGATCTCAGTCTAGATTAGTGCTAG,0.0617 z-score
GACATCCCCAGTCTCATATTGTGCTAG,1.14 z-score
GACGATTCCGGGACTGGAGACGTGCTA,-0.342 z-score
GACGATATCAGTTTCCAGACGTGCTAG,0.37 z-score
TCACCTCTGTTTTGAGCACTGTGCTAG,0.27 z-score
GACGATCTCAGTATCCAGACGTGCTAG,0.269 z-score
GACGGTTTCGGACTGAGGACGTGCTAG,6.04 z-score
TTAGGTTTCCGTCTCCTTTAGTGCTAG,3.02 z-score
GACGGTATCGGTCTGGGGACGTGCTAG,7.97 z-score
TTAGGTTTCGACTCTGGGTTAGTGCTA,8.18 z-score
TTAGAACTGGGGACTGGATGAGTGCTA,-0.221 z-score
TCATGTGTGTGTTTGTGACTGTGCTAG,0.0382 z-score
TTAGTTTTCAGACTGGATTAGTGCTAG,0.386 z-score
TCACAGAAGGGAAACAGGACTGTGCTA,-0.192 z-score
GATGGTCTCGGTTTCGGGACGTGCTAG,7.08 z-score
CACGAACTGGGGTATCGAGACGTGCTA,0.923 z-score
CAGAAGCCAGAGAGGACAGGGTGCTAG,-0.707 z-score
TTAGGTCTCGGTATCGATTAGTGCTAG,6.84 z-score

# Further values, each from its own experiment
Molecule,target,assay,system,conditions,scale,quantity,result
"PhoQ, residues 284 288 289 292 302 303 TLSLKA","PhoP, residues 12 14 15 18 19 LHTVM (Escherichia coli, UniProt P23836)","Sort-seq, refers to: YFP reporter",E. coli,"PhoQ-PhoP variant library, with: 10 µM Mg2+","reference: high Mg2+ state, higher = stronger signaling",fold induction,0.587
